Results from different studies.
Lines come from different studies, so protocols differ. Numbers after ± are the reported error.
ABCG2: Broad substrate specificity ATP-binding cassette transporter ABCG2 (ABCG2, Homo sapiens, UniProt Q9UNQ0)
UniProt Q9UNQ0, sequence (whole entry, looked up): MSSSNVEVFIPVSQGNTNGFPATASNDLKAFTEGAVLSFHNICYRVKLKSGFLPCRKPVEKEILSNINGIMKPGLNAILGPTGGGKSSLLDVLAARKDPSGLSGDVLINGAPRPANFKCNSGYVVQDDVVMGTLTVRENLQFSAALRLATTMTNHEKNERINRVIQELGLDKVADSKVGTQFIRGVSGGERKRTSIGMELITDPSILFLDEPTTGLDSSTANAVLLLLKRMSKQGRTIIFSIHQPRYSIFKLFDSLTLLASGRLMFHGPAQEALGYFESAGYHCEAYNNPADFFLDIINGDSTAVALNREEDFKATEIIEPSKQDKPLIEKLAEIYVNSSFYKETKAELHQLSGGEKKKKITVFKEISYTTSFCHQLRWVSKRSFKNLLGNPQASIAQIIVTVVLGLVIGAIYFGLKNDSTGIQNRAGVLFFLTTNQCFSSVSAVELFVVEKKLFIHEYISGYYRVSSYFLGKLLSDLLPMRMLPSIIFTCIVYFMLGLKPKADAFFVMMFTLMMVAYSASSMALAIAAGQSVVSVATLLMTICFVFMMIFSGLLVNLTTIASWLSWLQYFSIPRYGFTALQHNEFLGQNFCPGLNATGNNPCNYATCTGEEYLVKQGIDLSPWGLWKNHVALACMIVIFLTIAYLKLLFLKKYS
ALB: Albumin (ALB, Homo sapiens, UniProt P02768)

O=C(/C=C/c1cccc2ccccc12)c1cccc(O)c1  inhibition (ABCG2; mitoxantrone efflux, flow cytometry; HEK293 transfected with ABCG2; 5 µM, 30 min, with: mitoxantrone; reference: 5 µM GF120918 as 100%): 57 ± 6.7%
[11CH3]Oc1ccc(C(=O)Nc2c(-c3cccs3)nc3ccccn23)cc1  total distribution volume (δ-containing GABAA receptor; pig (female Landrace × Yorkshire × Duroc), cortex; intravenous bolus, dose not given; reference: baseline): 5.6 mL/cm³
O=C(O)C1OC(Oc2c(-c3ccccc3)oc3cc(O)ccc3c2=O)C(O)C(O)C1O (stereo not drawn)  Vmax (ABCG2; substrate, glucuronide efflux; HeLa-UGT1A9 cells): 24.3 ± 1.5 pmol/mg/min
[64Cu+2].c1cnc(CNCc2ccc(CN3CCCN4CCNCCCN(CC4)CC3)cc2)nc1  tissue uptake (CXCR4; NOD/SCID mouse, U87 and U87-stb-CXCR4 xenografts, bladder; iv, 90 min, ex vivo): 3.3 ± 0.95 %ID/g
COc1cc(OC)c(/C=C/C(=O)c2ccc3ccccc3c2)c(OC)c1  inhibition (ABCG2; mitoxantrone efflux, flow cytometry; HEK293 transfected with ABCG2; 5 µM, 30 min, with: mitoxantrone; reference: 5 µM GF120918 as 100%): 42.1 ± 8.8%
Cc1cc(C)c(-c2cc(C)c(OP(=O)([O-])OCCC[C@H](C(=O)[O-])N3CCN(CC(=O)[O-])CCN(C(C(=O)[O-])C(=O)[O-])CCN(CC(=O)[O-])CC3)cc2C)c(C)c1.[Gd+3]  rotational correlation time (ALB; albumin binding, variable temperature NMRD fit; albumin-bound complex; 0.1 mM, pH 7.4, fit 5-35 °C data, with: HSA 0.66 mM): 4.7 ns
COc1cc(O)c(C(=O)/C=C/c2cccc3ccccc23)c(OC)c1  inhibition (ABCG2; mitoxantrone efflux, flow cytometry; HEK293 transfected with ABCG2; 5 µM, 30 min, with: mitoxantrone; reference: 5 µM GF120918 as 100%): 82.3 ± 11.1%
Cc1cc(C)c(-c2cc(C)c(OP(=O)([O-])OCCC[C@H](C(=O)[O-])N3CCN(CC(=O)[O-])CCN(Cc4cc([N+](=O)[O-])ccc4[O-])CCN(CC(=O)[O-])CC3)cc2C)c(C)c1.[Gd+3]  activation enthalpy of water exchange (ALB; variable temperature NMRD; HSA-bound complex; concentration not given): 8.08 kcal/mol
O=C(O)C1OC(Oc2ccc3c(=O)cc(-c4ccccc4)oc3c2)C(O)C(O)C1O (stereo not drawn)  Km (ABCG2; efflux of glucuronide, substrate; HeLa-UGT1A9): 9 µM

Some of these lines once more:
COc1cc(O)c(C(=O)/C=C/c2cccc3ccccc23)c(OC)c1  inhibition (ABCG2; mitoxantrone efflux, flow cytometry; HEK293 transfected with ABCG2; 5 µM, 30 min, with: mitoxantrone; reference: 5 µM GF120918 as 100%): 82.3 ± 11.1%
